# Measured values collected from several papers.
# Numbered parts are unrelated; each lists some results of a single study.

# Sample 1 — technique: RNA Bind-n-Seq; form: RNA; sample: in vitro; tested at: 200 nM; setting: whole 134-nt RNA, ends assumed; together with: 150 mM KCl; baseline: input library; reading: higher = stronger binding
# Target: Fragile X messenger ribonucleoprotein 1, C-terminal low-complexity region (Fmr1, Mus musculus, UniProt P35922)
# All sequences stand within: GGGAGUUCUACAGUCCGACGAUC … UGGAAUUCUCGGGUGUCAAGG
Sequence,log2 enrichment
UCAGGUCCUUAAGUACCUUCGUAUUACUUUUAGCAGGAAAAACGGCAUGUUUUGCAUCUGGUGUGCAAUGUGAAGAGUCCUUCAAAAAUG,0.138
AGUCCUGUGCUACACAUCGUAUGUACCGAAUCGGGUUUUUGGUUUUUGGUUUUUGGGGAAAGUAUUAUGUUACGCCGUUCGGAUCUGCAC,-0.545
ACCAUGCAGGUGGGCAUCUUUGGGAAGUGGGGCAAGGGGGGGAUAGGGAGGGGGGUAACACUUUGGGAACAGGUGGUCACAGGUCGUUUC,0.783
UCAAGUCCUGUGCUACACAUCGUAUGUACCGAAUCGGAAAAGGAAAAGGAAAAGGAAAGUAUUAUGUUACGCCGUUCGGAUCUGCACUUC,-0.757
CCUGUGCUACACAUCGUAUGUACCGAAUCGGCCCCCCGGGGCCCCCCGGGGCCCCCCGGGGAAAGUAUUAUGUUACGCCGUUCGGAUCUG,-0.992
UCCUGUGCUACACAUCGUAUGUACCGAAUCAAAGUGUGUGUGUGUGUGUGUGUGUGUAAAAAAGUAUUAUGUUACGCCGUUCGGAUCUGC,0.559
UCCUGUGCUACACAUCGUAUGUACCGAAUCGGGGCCCCCGGGGCCCCCGGGGCCCCCGGGAAAGUAUUAUGUUACGCCGUUCGGAUCUGC,-0.0596
CUGUGCUACACAUCGUAUGUACCGAAUCGGGGAAAAAAAGGAAAAAAAGGGGAAAAAAAGGAAAGUAUUAUGUUACGCCGUUCGGAUCUG,-0.761
GUCCUGUGCUACACAUCGUAUGUACCGAAUCGGGGAGGGGUUUUUUUGGGGAAAGGGGAAAGUAUUAUGUUACGCCGUUCGGAUCUGCAC,0.717
UGGCCCUGGUGGCAUGCGGGGAGGAAGAGGUGGCCUCAUGGAUCGUAGUGGUCCCGGUGGAAUGUUCAGAGGUGGCCGUGGUGGAGACAG,0.177
GCAGGAAGUAAAAACAAAUGGAAAUGCUUCGGAUAGUGGCAGGGGUGGGGGUUGCUAAGGAAAAAAUGGGAUGGGAGUGGGUAAAGAGUU,0.214
CUCAAGUCCUGUGCUACACAUCGUAUGUACCGAAUCGGGUUUGGGUGGGAGGGAAAGUAUUAUGUUACGCCGUUCGGAUCUGCACUUCCA,1.32
CCUGUGCUACACAUCGUAUGUACCGAAUCGGGGAAAAAGGGGUUUGGGGAAAAAAAGGGGAAAGUAUUAUGUUACGCCGUUCGGAUCUGC,0.0514
ACCAUGCAGGUGGGCAUCUUUGAAAAGUGGGGCAAGGGGGGGAUAGGGAGGGGGGUAACACUUUGGGAACAGGUGGUCCCAGGUCGUUUC,0.937

# Sample 2 — technique: universal PBM; form: double-stranded DNA, one strand shown; sample: in vitro; tested at: 600 nM; reading: higher = stronger binding
# Target: Sal-like protein 4, full length isoform A (SALL4, Homo sapiens, UniProt Q9UJQ4, residues 1-1053)
# Chain of UniProt Q9UJQ4 (whole entry, looked up): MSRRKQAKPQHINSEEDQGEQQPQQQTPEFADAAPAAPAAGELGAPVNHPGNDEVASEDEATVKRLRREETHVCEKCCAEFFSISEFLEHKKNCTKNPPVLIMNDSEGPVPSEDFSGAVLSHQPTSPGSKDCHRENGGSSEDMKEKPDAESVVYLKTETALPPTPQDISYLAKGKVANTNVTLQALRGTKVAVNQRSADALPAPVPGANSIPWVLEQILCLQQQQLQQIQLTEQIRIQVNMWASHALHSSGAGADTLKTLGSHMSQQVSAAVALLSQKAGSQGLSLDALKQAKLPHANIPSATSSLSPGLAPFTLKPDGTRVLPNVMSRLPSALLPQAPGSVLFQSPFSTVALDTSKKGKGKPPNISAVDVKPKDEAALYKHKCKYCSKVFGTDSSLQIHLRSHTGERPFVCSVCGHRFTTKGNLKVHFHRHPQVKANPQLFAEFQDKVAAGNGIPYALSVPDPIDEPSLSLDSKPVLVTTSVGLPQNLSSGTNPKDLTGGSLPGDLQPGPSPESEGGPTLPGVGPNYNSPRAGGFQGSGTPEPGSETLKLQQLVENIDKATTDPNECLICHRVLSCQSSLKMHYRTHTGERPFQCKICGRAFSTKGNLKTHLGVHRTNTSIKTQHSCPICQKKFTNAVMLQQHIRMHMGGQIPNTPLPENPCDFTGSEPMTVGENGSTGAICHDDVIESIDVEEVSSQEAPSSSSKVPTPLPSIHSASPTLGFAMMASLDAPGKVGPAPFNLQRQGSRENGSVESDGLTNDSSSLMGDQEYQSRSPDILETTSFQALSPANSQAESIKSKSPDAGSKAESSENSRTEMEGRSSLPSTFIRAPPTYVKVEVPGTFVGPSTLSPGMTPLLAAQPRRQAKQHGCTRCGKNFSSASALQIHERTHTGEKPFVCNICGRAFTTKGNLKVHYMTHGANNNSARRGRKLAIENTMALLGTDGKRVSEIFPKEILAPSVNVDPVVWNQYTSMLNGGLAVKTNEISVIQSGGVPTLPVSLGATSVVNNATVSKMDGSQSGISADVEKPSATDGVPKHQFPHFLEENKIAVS
# Setting: 8-mer, flanks averaged, mean of replicates
Sequence,E-score
ATGATTCA,0.205
GTAGGGCA,-0.189
GGATGTGA,0.0132
AACAGCCG,-0.215
GCAGATAC,0.0106
CACCAATA,0.201
TAGGACCA,-0.0607
ACCCAAAC,-0.014
CGTGTTGA,0.048
GCGGGGTA,-0.225
ATCATGTG,0.157
ACCAACGC,-0.103
CAAAAGAA,0.219
CGCAACGA,-0.124
AACGGCAA,0.0602
GATGCCTA,0.0104
ACTTAGTG,0.0977
GGATCAGA,-0.0649
AAACTCCT,-0.109
ACTGATCT,0.0808
ATAGAATA,0.348
ACTAAGAA,0.0688
CAGATTGC,0.0577
TACTGATA,0.211
CTGAATCA,0.132

# Sample 3 — technique: protein binding microarray; form: double-stranded DNA, one strand shown; sample: in vitro; tested at: not given; baseline: not given; reading: higher = stronger binding
# Target: Histone acetyltransferase KAT6A, winged helix 1, GST fusion (KAT6A, Homo sapiens, UniProt Q92794, residues 1-85)
# Setting: 8-mer, flanks averaged, mean of 2 arrays, mostly near background
# Target sequence (chain): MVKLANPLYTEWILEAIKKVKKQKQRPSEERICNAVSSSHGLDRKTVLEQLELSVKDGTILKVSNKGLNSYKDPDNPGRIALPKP
Sequence,E-score
CCATCAAG,-0.144
ATAACCGC,0.134
CACATCCG,0.0752
ATCACCAA,-0.13
CAGTTCAA,0.0538
ACTAATGC,0.0531
CATTTACG,0.0705
CATAGCGC,0.256
AAACGCGG,0.294
AGTAATCA,-0.0652
CTCCGAAA,-0.0958
ATCGTGGA,-0.215
CATCGGAA,0.0145
CTTTATGC,0.0175
CGAACCCC,0.0682
AAAATCTT,-0.0775
ACGTCACC,-0.0313
CAGGCGCC,0.177
GGCCAGCA,0.0719
CTTGTTAC,-0.102
ATCGATCA,-0.191
AATTCTGT,-0.065
AAGACGGG,0.225
CAGGTACG,0.0708

# Sample 4 — target: UBE2V1 UBC core domain (UniProt Q13404); technique: yeast two-hybrid; sample: yeast; setting: mostly zero background; baseline: not given; reading: higher = stronger interaction
# B1: TRIM15 RING domain (UniProt Q9C019); chain SLKVVHELPACTLCAGPLEDAVTIPCGHTFCRLCLPALSQMGAQSSGKILLCPLCQEEEQAETPMA
# B2: RNF112 RING domain (UniProt Q9ULX5); chain QPMAPRELPTCSICLERLRDPISLDCGHDFCIRCFSTHRLPGCEPPCCPECRKICKQKRGLR
# B3: RNF175 RING domain (UniProt Q8N4F7); chain LPTRSLSDNICAVCGQKIIVELDEEGLIENTYQLSCNHVFHEFCIRGWCIVGKKQTCPYCKEKVDLKRMIS
# B4: RNF5 RING domain (UniProt Q99942); chain ERGGAGATFECNICLETAREAVVSVCGHLYCWPCLHQWLETRPERQECPVCKAGISREKVVP
# B5: RNF149 RING domain (UniProt Q8NC42); chain EKGIDVDAENCAVCIENFKVKDIIRILPCKHIFHRICIDPWLLDHRTCPMCKLDVIKALGYW
# B6: NSMCE1 RING domain (UniProt Q8WV22); chain RETYPDAVKICNICHSLLIQGQSCETCGIRMHLPCVAKYFQSNAEPRCPHCNDYWPHEIPKV
# B7: UBE4A RING domain (UniProt Q14139); chain LQQQEEETYADACDEFLDPIMSTLMCDPVVLPSSRVTVDRSTIARHLLSDQTDPFNRSPLTMDQIRPNTELKEKIQRWLAERKQQKEQLE
# B8: TRIM10 RING domain (UniProt Q9UDY6); chain SVTSLADEVNCPICQGTLREPVTIDCGHNFCRACLTRYCEIPGPDLEESPTCPLCKEPFRPGSFRP
# B9: RNF14 RING domain (UniProt Q9UBS8); chain IKCFNSKLFLCSICFCEKLGSECMYFLECRHVYCKACLKDYFEIQIRDGQVQCLNCPEPKCPSVATPGQVK
# B10: RNF150 RING domain (UniProt Q9ULK6); chain DKETESDFDNCAVCIEGYKPNDVVRILPCRHLFHKSCVDPWLLDHRTCPMCKMNILKALGIP
# B11: TRIM35 RING domain (UniProt Q9UPQ4); chain PSRSFKEELLCAVCYDPFRDAVTLRCGHNFCRGCVSRCWEVQVSPTCPVCKDRASPADLRT
# B12: RNF43 RING domain (UniProt Q68DV7); chain SGSSCSSAPVCAICLEEFSEGQELRVISCLHEFHRNCVDPWLHQHRTCPLCMFNITEGDSFS
# B13: ANKIB1 RING domain (UniProt Q9P2G1); chain LSPGDLDTSLCDICMCSISVFEDPVDMPCGHDFCRGCWESFLNLKIQEGEAHNIFCPAYDCFQLVPVDIIE
# B14: RNF32 RING domain (UniProt Q9H0A6); chain SLLQGDSVQPCPICKEEFELRPQVLLSCSHVFHKACLQAFEKFTNKKTCPLCRKNQYQTRVIH
# Construct (chain): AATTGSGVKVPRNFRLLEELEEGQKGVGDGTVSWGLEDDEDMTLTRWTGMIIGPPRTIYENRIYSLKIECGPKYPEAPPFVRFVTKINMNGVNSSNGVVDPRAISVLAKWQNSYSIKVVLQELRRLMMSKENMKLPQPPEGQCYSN
Sequence,lacZ reporter activity
B1 (TRIM15 RING domain),0
B2 (RNF112 RING domain),0
QLQDEEDDSLCRICMDAVIDCVLLECGHMVTCTKCGKRMSECPICRQYVVRAVHVF (RNF34 RING domain (UniProt Q969K3)),0
B3 (RNF175 RING domain),0
B4 (RNF5 RING domain),0
B5 (RNF149 RING domain),0
B6 (NSMCE1 RING domain),0
B7 (UBE4A RING domain),0
LKQVSIRENCCSLCCDEVADTQLKPCGHSDLCMDCALQLETCPLCRKEIVSRIRQI (RSPRY1 RING domain (UniProt Q96DX4)),0
ISNDSETLEECMVCSDMKRDTLFGPCGHIATCSLCSPRVKKCLICKEQVQSRTKIE (MIB1 RING domain (UniProt Q86YT6)),0
B8 (TRIM10 RING domain),0
B9 (RNF14 RING domain),0
B10 (RNF150 RING domain),0
B11 (TRIM35 RING domain),0
B12 (RNF43 RING domain),0
B13 (ANKIB1 RING domain),0
FLKKLEQSFMCVCCQELVYQPVTTECFHNVCKDCLQRSFKAQVFSCPACRHDLGQNYIMI (UHRF2 RING domain (UniProt Q96PU4)),0
B14 (RNF32 RING domain),0

# Sample 5 — technique: RNA Bind-n-Seq; form: RNA; sample: in vitro; tested at: 20 nM; setting: 6-mer, flanks averaged, single round; together with: 150 mM LiCl; baseline: input library; reading: higher = stronger binding
# Target: TAR DNA-binding protein 43, full length, His tag (TARDBP, Homo sapiens, UniProt Q13148, residues 1-414)
Sequence,6-mer enrichment (R)
CGGACA,0.962
AUCGGA,0.897
UAAUAA,1.57
CGCCCG,0.973
AUCUUG,0.916
AAUGAU,0.911
AAAGUG,1.05
CUCAGG,0.853
GAACGG,0.977
CGGCAU,0.92
UGUAAU,1.04
GAACAU,0.864
CGCGCA,0.95
UACGUA,0.903
CAAUCU,0.853
AUAAUA,1.38
GGCAGC,1.01
UUCGGU,0.949
CUUUCA,0.908
ACACGC,0.868

# Sample 6 — technique: competition protein-binding microarray; form: double-stranded DNA, one strand shown; sample: in vitro; tested at: 2 µM; together with: Cbf1 competitor, 0.05 µM; reading: higher = stronger binding; all sequences stand within: … GTCTTGATTCGCTTGACGCTGCTG
# Target: Phosphate system positive regulatory protein PHO4, full length, GST-tagged (PHO4, Saccharomyces cerevisiae, UniProt P07270, residues 1-312)
# Setting: whole 60-bp probe, lowest competitor level
# Residues (chain): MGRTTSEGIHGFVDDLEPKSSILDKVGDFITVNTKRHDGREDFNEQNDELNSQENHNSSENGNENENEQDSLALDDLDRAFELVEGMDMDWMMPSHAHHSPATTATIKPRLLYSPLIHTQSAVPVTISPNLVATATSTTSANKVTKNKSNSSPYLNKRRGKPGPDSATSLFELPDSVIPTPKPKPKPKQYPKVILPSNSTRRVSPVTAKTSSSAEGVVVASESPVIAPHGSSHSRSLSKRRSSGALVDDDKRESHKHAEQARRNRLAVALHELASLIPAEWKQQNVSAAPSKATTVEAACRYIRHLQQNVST
Sequence,fluorescence intensity [a.u.]
AGCGATACGACAATTTTCGTGGGTATAGACTTCACC,4070
GTCTTGTCTCATTGGAAAGTGGGTGTCCCCACTTCA,4590
CGTCCTAGCGATTGACGAGTGGGTGCCATGAGGAAG,6370
GGACGCGTAGAGGCGCACGTGTCCCGGCCCGGAGCC,16400
AGTAGCTAAGCGAGTCACGGGACTAAAAGGTAAAAA,5570
CGGGGTTAAGTTTGGAACGTGGGTGGCTTGCAGCAG,12800
CGGGGTTAAGTTTGGCGTGTGGGTGGCTTGCAGCAG,6140
CTTTCCCGATCTTGTCAAGTGGGTGTAGCACATTTG,4380
GACTTTTTCCTGAGGCACATGTGTGGCCATCGTCAA,11700
ACTTTGGATTATCTGCTCGTGCAAATGAAATATACT,9430
GTCTTGTCTCATTGTCACTGAACTTTCCCCACTTCA,4200
AACTCTCCACCCTTGCACATGTCTTCAGATTCGTCC,11200
AAAGCGGTAATTTGTCACACTACTTCACATATCTAT,5390
CGGCAAATCCTCTTCCACATGTGTGTCTTTGAATCA,10400
AAATTACTAAGTTGGGATGTGGGTGACGCCGTATGA,4770
AGGCAAGGAGAGCACCATGTGCTGAGTCACAAATAC,11200
CATACCCAACCTTGAATGGTGGGTGAAGATATTTGT,4780
AAATTACTAAGTTGATAGGTGGGTGACGCCGTATGA,4240
TCGGTTTTTCTTACCGTCGTGGCCGTAGAGGTGAGG,7060
ACCAGCACCACCAACCACCTGAACCCCAACCATATT,5230
CTCAATGGAATCCGTCATGCTCGGTAAGTGAGTCTC,4230
TGCTTTTTTCCAAAACACGTGGCAATGACTTTTGAA,17800
GATACCCCGTTGCACCATGTGGAGGATGTAGCCACT,9920
CGTCCTAGTGATTTTCACGTGGACTCCATGAGGAAG,10600

# A few entries again (sample 3):
Sequence,E-score
AAACGCGG,0.294
AGTAATCA,-0.0652
CTCCGAAA,-0.0958
ATCGTGGA,-0.215
CATCGGAA,0.0145
CTTTATGC,0.0175
